Results collected from several papers.
± marks the error that the study gave.
Cell line: HEK293

Compound	test	setting	quantity	result
CCCC[N+]1=c2cc3c4cc2[O][Mn-2]1(=[C]=O)(=[C]=O)(=[C]=O)[n+]1ccc(cc1)C(=O)Oc1ccccc1OC(=O)c1cc[n+](cc1)[Mn-2](=[C]=O)(=[C]=O)(=[C]=O)([O]3)[N+]=4CCCC	cell growth, MTT	48 h, LED photolysed 1 h	IC50	> 50 µM
O=C(O)C(CO)NCc1cc(Cl)c(OCc2cccc(-c3ccccc3)c2Br)cc1OCc1cccnc1 (stereo not shown)	MTT	–	IC50	> 10 µM
Cc1ccc(C(C)C)cc1.Cc1ccc(C(C)C)cc1.Cc1ccc(C(C)C)cc1.Cc1ccc(C(C)C)cc1.O=S(=O)(O)C(F)(F)F.O=S(=O)(O)C(F)(F)F.O=S(=O)(O)C(F)(F)F.O=S(=O)(O)C(F)(F)F.c1ccc2c3c4ccccc4c(c2c1)-c1cn(nn1)-c1cc[n+](cc1)[Ru-]1[O]C2=[O+][Ru-]([O]C2=[O+]1)[n+]1ccc(cc1)-n1cc(nn1)-c1c2ccccc2c(c2ccccc12)-c1cn(nn1)-c1cc[n+](cc1)[Ru-]1[O]C2=[O+][Ru-]([O]C2=[O+]1)[n+]1ccc(cc1)-n1cc-3nn1	cell growth or viability, MTT	24 h	IC50	> 40 µM
CN1C(=O)[C@@H]2NC(=O)[C@@H]3NC(=O)[C@@H](c4ccc(O)cc4)NC(=O)[C@H](NC(=O)C(N)c4ccc(O)cc4)Cc4c[nH]c5cc(ccc45)-c4cc3cc(c4O)Oc3ccc(cc3)C[C@H]1C(=O)N[C@@H](C(=O)O)c1ccc(O)c(c1)Oc1ccc2cc1 (stereo partly shown)	cell viability, CellTiter-Glo	48 h, 1% DMSO	IC50	unstable
CC(=O)OC[C@H]1O[C@@H](n2cc(CSc3nc4ccccc4n3Cc3cn([C@@H]4O[C@H](COC(C)=O)[C@@H](OC(C)=O)C(OC(C)=O)[C@H]4OC(C)=O)nn3)nn2)[C@H](OC(C)=O)C(OC(C)=O)[C@@H]1OC(C)=O (stereo in doubt)	MTT	15.6 ppm	cytotoxicity	4.09%
CN1C(=O)[C@@H]2NC(=O)[C@@H]3NC(=O)[C@@H](c4ccc(O)cc4)NC(=O)[C@H](NC(=O)C(NC(=O)CCCCCN)c4ccc(O)cc4)Cc4c[nH]c5cc(ccc45)-c4cc3cc(c4O)Oc3ccc(cc3)C[C@H]1C(=O)N[C@@H](C(=O)O)c1ccc(O)c(c1)Oc1ccc2cc1 (stereo partly shown)	cell viability, CellTiter-Glo	48 h, 1% DMSO	IC50	unstable
CCN(C(=O)c1cc(F)ccc1Oc1nncnc1N1CCC2(C1)CN([C@H](CCCN(C)CCOC)C(C)C)C2)C(C)C	cell growth or viability	7 days	GI50	> 10 µM
CCCCN1C(=O)c2cccc3c(NCCCCCCCCCCN4CCOCC4)ccc(c23)C1=O	confocal lambda scanning	–	emission maximum in ER	536 nm
O=[C]=[Mn-2]12(=[C]=O)(=[C]=O)[O]c3cc4c(cc3=[N+]1CCc1ccccc1)[O][Mn-2](=[C]=O)(=[C]=O)(=[C]=O)([N+]=4CCc1ccccc1)[n+]1ccc(cc1)C(=O)OCCOC(=O)c1cc[n+]2cc1	cell growth, MTT	48 h, LED photolysed 1 h	IC50	> 50 µM
CC(C)C[C@H](NC(=O)[C@H](Cc1ccc(O)cc1)NC(=O)[C@@H]1CCCN1C(=O)[C@H](CCCNC(=N)N)NC(=O)[C@@H]1CCCN1C(=O)[C@H](CCCCN)NC(=O)[C@H](CC(=O)O)NC(=O)[C@@H]1CCCN1C(=O)[C@H](CCCNC(=N)N)NC(=O)C1(N)CCCCC1)C(=O)N1CCC[C@H]1C(=O)N[C@@H](CCCNC(=N)N)C(=O)N1CCC[C@H]1C(=O)N[C@@H](CCCNC(=N)N)C(=O)N1CCC[C@H]1C(=O)N1CCC[C@H]1C(=O)N[C@@H](CCCNC(=N)N)C(=O)N1CCC[C@H]1C(=O)N[C@H](C(=O)N[C@@H](CCCNC(=N)N)C(=O)N[C@@H](CSCc1cccc(CSC[C@H](NC(=O)[C@H](CCCNC(=N)N)NC(=O)[C@@H](NC(=O)[C@@H]2CCCN2C(=O)[C@H](CCCNC(=N)N)NC(=O)[C@@H]2CCCN2C(=O)[C@@H]2CCCN2C(=O)[C@H](CCCNC(=N)N)NC(=O)[C@@H]2CCCN2C(=O)[C@H](CCCNC(=N)N)NC(=O)[C@@H]2CCCN2C(=O)[C@H](CC(C)C)NC(=O)[C@H](Cc2ccc(O)cc2)NC(=O)[C@@H]2CCCN2C(=O)[C@H](CCCNC(=N)N)NC(=O)[C@@H]2CCCN2C(=O)[C@H](CCCCN)NC(=O)[C@H](CC(=O)O)NC(=O)[C@@H]2CCCN2C(=O)[C@H](CCCNC(=N)N)NC(=O)C2(N)CCCCC2)C(C)C)C(=O)NN)c1)C(=O)NN)C(C)C	cytotoxicity	highest tested 125 µg/mL	IC50	> 125 µg/mL
CCCC[N+]1=c2cc3c4cc2[O][Mn-2]1(=[C]=O)(=[C]=O)(=[C]=O)[n+]1ccc(cc1)C(=O)NCCNC(=O)c1cc[n+](cc1)[Mn-2](=[C]=O)(=[C]=O)(=[C]=O)([O]3)[N+]=4CCCC	cell growth, MTT	48 h, LED photolysed 1 h	IC50	45.4 ± 6.38 µM
Cc1ccc(C(C)C)cc1.Cc1ccc(C(C)C)cc1.Cc1ccc(C(C)C)cc1.Cc1ccc(C(C)C)cc1.O=S(=O)(O)C(F)(F)F.O=S(=O)(O)C(F)(F)F.O=S(=O)(O)C(F)(F)F.O=S(=O)(O)C(F)(F)F.c1ccc2c3c4ccccc4c(c2c1)-c1cn(nn1)-c1cc[n+](cc1)[Ru-]1[O]c2c4ccccc4c4c5c(c6ccccc6c(c25)=[O+]1)=[O+][Ru-]([O]4)[n+]1ccc(cc1)-n1cc(nn1)-c1c2ccccc2c(c2ccccc12)-c1cn(nn1)-c1cc[n+](cc1)[Ru-]1[O]c2c4ccccc4c4c5c(c6ccccc6c(c25)=[O+]1)=[O+][Ru-]([O]4)[n+]1ccc(cc1)-n1cc-3nn1	cell growth or viability, MTT	24 h	IC50	28.3 µM
CCCC[N+]1=c2cc3c4cc2[O][Mn-2]1(=[C]=O)(=[C]=O)(=[C]=O)[n+]1ccc(cc1)C(=O)OCCOC(=O)c1cc[n+](cc1)[Mn-2](=[C]=O)(=[C]=O)(=[C]=O)([O]3)[N+]=4CCCC	MTT	50 µM, 48 h, photolysed compound	viability reduction	~34%
CC(C)C[C@H](NC(=O)[C@H](Cc1ccc(O)cc1)NC(=O)[C@@H]1CCCN1C(=O)[C@H](CCCNC(=N)N)NC(=O)[C@@H]1CCCN1C(=O)[C@H](CCCCN)NC(=O)[C@H](CC(=O)O)NC(=O)[C@@H]1CCCN1C(=O)[C@H](CCCNC(=N)N)NC(=O)C1(N)CCCCC1)C(=O)N1CCC[C@H]1C(=O)N[C@@H](CCCNC(=N)N)C(=O)N1CCC[C@H]1C(=O)N[C@@H](CCCNC(=N)N)C(=O)N1CCC[C@H]1C(=O)N1CCC[C@H]1C(=O)N[C@@H](CCCNC(=N)N)C(=O)N1CCC[C@H]1C(=O)N[C@H](C(=O)N[C@@H](CCCNC(=N)N)C(=O)N[C@@H](CSc1c(F)c(F)c(SC[C@H](NC(=O)[C@H](CCCNC(=N)N)NC(=O)[C@@H](NC(=O)[C@@H]2CCCN2C(=O)[C@H](CCCNC(=N)N)NC(=O)[C@@H]2CCCN2C(=O)[C@@H]2CCCN2C(=O)[C@H](CCCNC(=N)N)NC(=O)[C@@H]2CCCN2C(=O)[C@H](CCCNC(=N)N)NC(=O)[C@@H]2CCCN2C(=O)[C@H](CC(C)C)NC(=O)[C@H](Cc2ccc(O)cc2)NC(=O)[C@@H]2CCCN2C(=O)[C@H](CCCNC(=N)N)NC(=O)[C@@H]2CCCN2C(=O)[C@H](CCCCN)NC(=O)[C@H](CC(=O)O)NC(=O)[C@@H]2CCCN2C(=O)[C@H](CCCNC(=N)N)NC(=O)C2(N)CCCCC2)C(C)C)C(=O)NN)c(F)c1F)C(=O)NN)C(C)C	cytotoxicity	highest tested 125 µg/mL	IC50	> 125 µg/mL
O=[C]=[Mn-2]12(=[C]=O)(=[C]=O)[O]c3cc4c(cc3=[N+]1CCc1ccccc1)[O][Mn-2](=[C]=O)(=[C]=O)(=[C]=O)([N+]=4CCc1ccccc1)[n+]1ccc(cc1)C(=O)Oc1ccccc1OC(=O)c1cc[n+]2cc1	cell growth, MTT	48 h, LED photolysed 1 h	IC50	> 50 µM
CC(C)C[C@H](NC(=O)[C@H](Cc1ccc(O)cc1)NC(=O)[C@@H]1CCCN1C(=O)[C@H](CCCNC(=N)N)NC(=O)[C@@H]1CCCN1C(=O)[C@H](CCCCN)NC(=O)[C@H](CC(=O)O)NC(=O)[C@@H]1CCCN1C(=O)[C@H](CCCNC(=N)N)NC(=O)C1(N)CCCCC1)C(=O)N1CCC[C@H]1C(=O)N[C@@H](CCCNC(=N)N)C(=O)N1CCC[C@H]1C(=O)N[C@@H](CCCNC(=N)N)C(=O)N1CCC[C@H]1C(=O)N1CCC[C@H]1C(=O)N[C@@H](CCCNC(=N)N)C(=O)N1CCC[C@H]1C(=O)N[C@H](C(=O)N[C@@H](CCCNC(=N)N)C(=O)N[C@@H](CSCc1ccccc1CSC[C@H](NC(=O)[C@H](CCCNC(=N)N)NC(=O)[C@@H](NC(=O)[C@@H]1CCCN1C(=O)[C@H](CCCNC(=N)N)NC(=O)[C@@H]1CCCN1C(=O)[C@@H]1CCCN1C(=O)[C@H](CCCNC(=N)N)NC(=O)[C@@H]1CCCN1C(=O)[C@H](CCCNC(=N)N)NC(=O)[C@@H]1CCCN1C(=O)[C@H](CC(C)C)NC(=O)[C@H](Cc1ccc(O)cc1)NC(=O)[C@@H]1CCCN1C(=O)[C@H](CCCNC(=N)N)NC(=O)[C@@H]1CCCN1C(=O)[C@H](CCCCN)NC(=O)[C@H](CC(=O)O)NC(=O)[C@@H]1CCCN1C(=O)[C@H](CCCNC(=N)N)NC(=O)C1(N)CCCCC1)C(C)C)C(=O)NN)C(=O)NN)C(C)C	cytotoxicity	highest tested 125 µg/mL	IC50	> 125 µg/mL

Excerpt of the above:
Compound	test	setting	quantity	result
CC(C)C[C@H](NC(=O)[C@H](Cc1ccc(O)cc1)NC(=O)[C@@H]1CCCN1C(=O)[C@H](CCCNC(=N)N)NC(=O)[C@@H]1CCCN1C(=O)[C@H](CCCCN)NC(=O)[C@H](CC(=O)O)NC(=O)[C@@H]1CCCN1C(=O)[C@H](CCCNC(=N)N)NC(=O)C1(N)CCCCC1)C(=O)N1CCC[C@H]1C(=O)N[C@@H](CCCNC(=N)N)C(=O)N1CCC[C@H]1C(=O)N[C@@H](CCCNC(=N)N)C(=O)N1CCC[C@H]1C(=O)N1CCC[C@H]1C(=O)N[C@@H](CCCNC(=N)N)C(=O)N1CCC[C@H]1C(=O)N[C@H](C(=O)N[C@@H](CCCNC(=N)N)C(=O)N[C@@H](CSCc1ccccc1CSC[C@H](NC(=O)[C@H](CCCNC(=N)N)NC(=O)[C@@H](NC(=O)[C@@H]1CCCN1C(=O)[C@H](CCCNC(=N)N)NC(=O)[C@@H]1CCCN1C(=O)[C@@H]1CCCN1C(=O)[C@H](CCCNC(=N)N)NC(=O)[C@@H]1CCCN1C(=O)[C@H](CCCNC(=N)N)NC(=O)[C@@H]1CCCN1C(=O)[C@H](CC(C)C)NC(=O)[C@H](Cc1ccc(O)cc1)NC(=O)[C@@H]1CCCN1C(=O)[C@H](CCCNC(=N)N)NC(=O)[C@@H]1CCCN1C(=O)[C@H](CCCCN)NC(=O)[C@H](CC(=O)O)NC(=O)[C@@H]1CCCN1C(=O)[C@H](CCCNC(=N)N)NC(=O)C1(N)CCCCC1)C(C)C)C(=O)NN)C(=O)NN)C(C)C	cytotoxicity	highest tested 125 µg/mL	IC50	> 125 µg/mL
CC(C)C[C@H](NC(=O)[C@H](Cc1ccc(O)cc1)NC(=O)[C@@H]1CCCN1C(=O)[C@H](CCCNC(=N)N)NC(=O)[C@@H]1CCCN1C(=O)[C@H](CCCCN)NC(=O)[C@H](CC(=O)O)NC(=O)[C@@H]1CCCN1C(=O)[C@H](CCCNC(=N)N)NC(=O)C1(N)CCCCC1)C(=O)N1CCC[C@H]1C(=O)N[C@@H](CCCNC(=N)N)C(=O)N1CCC[C@H]1C(=O)N[C@@H](CCCNC(=N)N)C(=O)N1CCC[C@H]1C(=O)N1CCC[C@H]1C(=O)N[C@@H](CCCNC(=N)N)C(=O)N1CCC[C@H]1C(=O)N[C@H](C(=O)N[C@@H](CCCNC(=N)N)C(=O)N[C@@H](CSCc1cccc(CSC[C@H](NC(=O)[C@H](CCCNC(=N)N)NC(=O)[C@@H](NC(=O)[C@@H]2CCCN2C(=O)[C@H](CCCNC(=N)N)NC(=O)[C@@H]2CCCN2C(=O)[C@@H]2CCCN2C(=O)[C@H](CCCNC(=N)N)NC(=O)[C@@H]2CCCN2C(=O)[C@H](CCCNC(=N)N)NC(=O)[C@@H]2CCCN2C(=O)[C@H](CC(C)C)NC(=O)[C@H](Cc2ccc(O)cc2)NC(=O)[C@@H]2CCCN2C(=O)[C@H](CCCNC(=N)N)NC(=O)[C@@H]2CCCN2C(=O)[C@H](CCCCN)NC(=O)[C@H](CC(=O)O)NC(=O)[C@@H]2CCCN2C(=O)[C@H](CCCNC(=N)N)NC(=O)C2(N)CCCCC2)C(C)C)C(=O)NN)c1)C(=O)NN)C(C)C	cytotoxicity	highest tested 125 µg/mL	IC50	> 125 µg/mL
